Published values from different studies.
Protocols differ between the studies behind these lines. “And” joins repeats or separate records; there may be more than shown.
Target: Tyrosine-protein kinase Fer (FER, Homo sapiens, UniProt P16591)

SMILES = NC(=O)[C@@H](O)C[C@H]1CCc2sc3ncnc(O[C@H]4CC[C@H](N5CCOCC5)CC4)c3c21; test = enzyme activity, inhibitor; setting = 10 µM; measurement = inhibition; result = 29%
SMILES = CNC(=O)C1CCN(c2cc(C)c(F)cc2NC(=O)c2ccc(-c3cc(O)ccc3C)c(C)c2)CC1; test = binding, competition with immobilised ligand; setting = 1 µM; measurement = remaining binding; result = 100%
SMILES = C=CC(=O)Nc1cccc(-c2cnc3[nH]cc(C(=O)NC(C)(C)C)c3n2)c1; test = kinase activity; setting = 0.1 µM; measurement = inhibition; result = 14% and 12%
SMILES = C[C@H](c1ccccc1)N1C(=O)C2=Nc3cccc(Cl)c3CN2C1=S; test = enzyme activity, inhibitor; setting = 1.5 µM; measurement = inhibition; result = ≥ 85%
SMILES = COc1cc(Nc2nccc(-c3cnn4nc(OC)ccc34)n2)cc(C(F)(F)F)c1; test = binding, competition with immobilised ligand; setting = 1 µM; measurement = remaining binding; result = 98%
SMILES = CCN1CCN(Cc2ccc(C(=O)Nc3ccc(C)c(NCc4cnc5[nH]ccc5c4OC)c3)cc2C(F)(F)F)CC1; test = binding, competition with immobilised ligand; setting = 1 µM; measurement = remaining binding; result = 43%
SMILES = C[C@H]1CN(C(=O)c2cn(-c3ccnc(N)n3)c3cc(C#CC4(O)CCCCC4)ccc23)CCN1; test = enzyme activity, inhibitor, FRET; setting = 1 µM; measurement = inhibition; result = 85%
SMILES = C=CC(=O)N1CCc2ccc(-n3c(=O)ccc4cnc5ccc(-c6cnn(C)c6)cc5c43)cc21; test = KINOMEscan; setting = 1 µM; scale = relative to: DMSO control; measurement = remaining binding; result = 100%
SMILES = COc1ccc(NC(=O)Nc2ccc3c(c2)C(=O)N(C(C)CO)CC(C)C(CN(C)Cc2ccc4c(c2)OCO4)O3)cc1 (stereo not drawn); test = kinase activity, KinaseProfiler; setting = 0.03 µM, species human; scale = relative to: control; measurement = remaining activity; result = 104%
SMILES = CN1CC[C@@H](COc2cnc(C#N)cc2-c2ccn3nc(NC(=O)C4CC4)cc3c2)C1; test = enzyme activity, inhibitor; setting = 1 µM; measurement = inhibition; result = 10%
SMILES = Cc1cccc(O[C@H]2CCC[C@@H](C(C)CNCc3ccncc3)C2)c1 (relative stereo); test = cell-free assay, inhibitor; setting = 1 µM; measurement = inhibition; result = -3%
SMILES = O=C=[N][Ru-4]123([n]4c5ccc(O)cc5c5c6c(c7cc(F)c[n+]1c7c54)C(=O)NC6=O)[S+]1CC[S+]2CC[S+]3CC1 (stereo not drawn); test = enzyme activity; setting = 100 nM, human enzyme, with: 10 µM ATP; scale = relative to: untreated; measurement = remaining activity; result = 101%
SMILES = CN1CCN(Cc2ccc(-c3ccc(CO[C@H]4CCC[C@@H]4NC(=O)c4cc(-c5cnn(C)c5)cnc4N)cc3)cc2)CC1; test = enzyme activity, inhibitor; setting = 0.1 µM; measurement = inhibition; result = 0%
SMILES = COc1c(Cl)cccc1Nc1c(-c2ccncc2C#C[C@@]2(C)CCCN2C(=O)/C=C/CN(C)C)[nH]c2c1C(=O)NCC2; test = binding, competition with immobilised ligand; setting = 3 µM; measurement = remaining binding; result = 100%
SMILES = Nc1ncc2c(n1)-c1c([nH]c3ccc(C4=CCOCC4)cc13)CCC2; test = binding, competition with immobilised ligand; setting = 1 µM; measurement = remaining binding; result = 100%

For quick reference, copied from above:
SMILES = CN1CC[C@@H](COc2cnc(C#N)cc2-c2ccn3nc(NC(=O)C4CC4)cc3c2)C1; test = enzyme activity, inhibitor; setting = 1 µM; measurement = inhibition; result = 10%
SMILES = Cc1cccc(O[C@H]2CCC[C@@H](C(C)CNCc3ccncc3)C2)c1 (relative stereo); test = cell-free assay, inhibitor; setting = 1 µM; measurement = inhibition; result = -3%
